Measured values from different studies.
A part holds a random share of what one study measured.

Sample 1 — method: competition protein-binding microarray; form: double-stranded DNA, one strand shown; sample: in vitro; concentration: 2 µM; together with: Pho4 competitor, 0.05 µM; direction: higher = stronger binding; all sequences stand within: … GTCTTGATTCGCTTGACGCTGCTG
Target: Centromere-binding protein 1, full length, His-tagged (CBF1, Saccharomyces cerevisiae, UniProt P17106, residues 1-351)
Chain of UniProt P17106 (whole entry, looked up): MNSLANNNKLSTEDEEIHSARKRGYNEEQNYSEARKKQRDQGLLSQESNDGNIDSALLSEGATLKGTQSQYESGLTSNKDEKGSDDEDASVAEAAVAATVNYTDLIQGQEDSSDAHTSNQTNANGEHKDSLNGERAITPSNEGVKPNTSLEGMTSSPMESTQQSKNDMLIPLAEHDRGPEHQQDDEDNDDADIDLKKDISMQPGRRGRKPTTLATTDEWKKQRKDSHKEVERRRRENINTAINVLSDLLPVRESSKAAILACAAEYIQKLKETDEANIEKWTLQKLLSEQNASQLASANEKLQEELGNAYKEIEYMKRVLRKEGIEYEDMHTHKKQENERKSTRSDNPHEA
Setting: whole 60-bp probe, lowest competitor level
Oligonucleotide | fluorescence intensity
CGTCCTAGTGATTGTCACCCCACTTCCATGAGGAAG | 82 a.u.
GACCACAAAAGGATGCACGATCAGAAGCACTGTACC | 76.2 a.u.
CGTCCTAGTGATTGGCCCGTGGGTGCCATGAGGAAG | 71.9 a.u.
TGAGAACATCCAACTAGCGTGCCGATGCAATCCCAG | 67.3 a.u.
TTCCTGCTCTCGTTCCACGTTGTCATCCCACCCATT | 76.3 a.u.
CGGGGTTAAGTTTGAGCAGTGGGTGGCTTGCAGCAG | 60.3 a.u.
CTCCAACATGCTTTGCACGGGGGAGGGACAGTAGCT | 148 a.u.
CGTCCTAGCGATTGATGAGTGGGTGCCATGAGGAAG | 84.1 a.u.

Sample 2 — method: RNA Bind-n-Seq; form: RNA; sample: in vitro; concentration: not given; relative to: input RNA pool; direction: higher = stronger binding
Target: RING finger protein unkempt homolog, zinc fingers 1-6, GST-SBP tag (UNK, Homo sapiens, UniProt Q9C0B0, residues 30-357)
Chain of UniProt Q9C0B0 (30-357, looked up): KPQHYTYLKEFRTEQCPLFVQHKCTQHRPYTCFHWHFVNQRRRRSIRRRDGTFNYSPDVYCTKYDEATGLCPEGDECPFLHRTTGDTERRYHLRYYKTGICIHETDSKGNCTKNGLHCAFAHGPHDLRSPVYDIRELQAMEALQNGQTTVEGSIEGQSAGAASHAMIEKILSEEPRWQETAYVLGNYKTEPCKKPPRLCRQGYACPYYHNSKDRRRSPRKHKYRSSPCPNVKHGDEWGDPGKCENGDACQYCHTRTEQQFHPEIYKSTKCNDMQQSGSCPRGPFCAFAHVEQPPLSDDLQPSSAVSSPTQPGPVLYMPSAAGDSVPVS
Setting: RNA with constant flanks, human and mouse sites, ends assumed
Oligonucleotide | bound/input enrichment
GGGAGUUCUACAGUCCGACGAUCCCAGCUUCAGUUACGCUGUGUAAAGUUUCAAGAGAGUAAUGACAAGACUCAGCUUAUCUUUGGCUCUGUCACCAACAUACAUGCAAAAGAUGCAGCCCCAGUGGAGAAGAUACACACCAUCAACAGAGGAUUGAGCAUCA | 0.162 ratio
GGGAGUUCUACAGUCCGACGAUCCAUGCAAUCUUGUAAUGUGGCCUGAAAACAAGCUAACUGUAUUAGAAACUAUUCAAAAACUAGGUAUUUUUAGUGACCUGUAGGCAGUGGCAAAUACAGACAUGUGAACCUUGAAUACAUCAACAGAGGAUUGAGCAUCA | 2.08 ratio
GGGAGUUCUACAGUCCGACGAUCCACACAAUGUUUUUACAAGAUUUUAGACCAUUUCUAAGUAGCAAUCCACUGGACCAAGAUAAUAGAGCCAAUGAGAGAGGUCACCAAACUCACACUGACUUUUGGGGACCAAGUCGGCCUCAACAGAGGAUUGAGCAUCA | 1.38 ratio

Sample 3 — method: protein binding microarray; form: double-stranded DNA, one strand shown; sample: in vitro; concentration: not given; relative to: not given; direction: higher = stronger binding
Target: Histone acetyltransferase KAT6A, both winged helices, GST fusion (KAT6A, Homo sapiens, UniProt Q92794, residues 1-181)
Setting: 8-mer, flanks averaged, mean of 2 arrays, mostly near background
Target sequence (chain): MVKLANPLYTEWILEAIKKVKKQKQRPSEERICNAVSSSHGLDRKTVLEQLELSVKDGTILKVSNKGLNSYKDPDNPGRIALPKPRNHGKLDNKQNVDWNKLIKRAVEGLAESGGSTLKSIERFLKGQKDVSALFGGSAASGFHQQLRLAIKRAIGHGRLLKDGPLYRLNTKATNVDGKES
Oligonucleotide | E-score
AGGGTGGG | -0.154
ATATACGG | 0.125
ACAGCAAC | -0.0388
AACTCCTA | -0.234
CGAGCACC | 0.0118
ACCTTCCG | 0.134
TAGATCAA | -0.278
CTAACGGA | 0.199

Single results of other studies
Substance | target | assay | system | setting | how to read | measurement | value
PhoQ, residues 284 288 289 292 302 303 SQSLSM | PhoP, residues 12 14 15 18 19 NQFFI (Escherichia coli, UniProt P23836) | Sort-seq, refers to: YFP reporter | E. coli | PhoQ-PhoP variant library, together with: 10 µM Mg2+ | relative to: high Mg2+ state, higher = stronger signaling | fold induction | 12.5
